Earlier results, collected from citations in different studies.
Protocols differ between the studies behind these lines. Numbers after ± are the reported error.
CHRM1: Muscarinic acetylcholine receptor M1 (CHRM1, Homo sapiens, UniProt P11229)
MTNR1A: Melatonin receptor type 1A (MTNR1A, Homo sapiens, UniProt P48039)

| Compound | target or system | assay | test system | setting | how to read | endpoint | value |
| --- | --- | --- | --- | --- | --- | --- | --- |
| C[N+]1(C)CCC(OC(=O)C(c2ccccc2)c2ccccc2)CC1.[I-] | CHRM1 | binding | – | – | – | Hill coefficient | 1 |
| CN(C)C(=O)c1cc2cnc(Nc3ccc(N4CCNCC4)cn3)nc2n1C1CCCC1 | – | measured: hyperglycemia | advanced solid tumour or lymphoma patients | dose not given, continuous dosing | reference: patients | adverse event incidence | 26.3% |
| CC/C=C(\C)C=O | YqjM (Old Yellow Enzyme homolog) | ene-reductase biotransformation, substrate | – | – | – | conversion | 78% |
| Nc1cc(C(F)(F)F)c(-c2nc(N3CCOCC3)nc(N3CCOCC3)n2)cn1 | PIK3C2G (Homo sapiens, UniProt O75747) | KinomeScan competition binding | – | 10 µM | – | remaining binding | 7% |
| C[S+](CC[C@H](N)C(=O)[O-])C[C@H]1O[C@@H](n2cnc3c(N)ncnc32)[C@H](O)[C@@H]1O (stereo partly shown) | DNMT1 | substrate | – | with: near-saturating dI-dC oligo | – | Km | 2.7 µM |
| CO[C@@H]1O[C@H](CO)[C@H](O)[C@H](O)[C@H]1O | lecA (Pseudomonas aeruginosa, UniProt Q05097) | ITC | – | – | – | -ΔH | 9.32 kcal/mol |
| CC1(C)S[C@@H]2[C@H](NC(=O)[C@H](N)c3ccccc3)C(=O)N2[C@H]1C(=O)O | Pseudomonas aeruginosa | – | clinical isolate RKI-No_484/12 | – | – | MIC | > 16 µg/mL |
| Nc1cc(C(F)(F)F)c(-c2nc(N3CCOCC3)nc(N3CCOCC3)n2)cn1 | CLK4 (Homo sapiens, UniProt Q9HAZ1) | enzyme activity | – | 10 µM | reference: untreated | remaining activity | 32% |
| COc1cccc(-c2ccc(NC(=O)C3=C(C(=O)O)CCC3)c(F)c2)c1 | Nuclear receptor subfamily 4 group A member 1 (NR4A1, Homo sapiens, UniProt P22736) | agonist | – | – | reference: reference modulator | maximal activation | 620% |
| CC(=O)N[C@@H](COP(=O)(O)O)C(=O)N1CCC[C@H]1C(=O)N[C@@H](C)C(=O)N[C@@H](Cc1ccccc1)C(N)=O | Breast cancer type 1 susceptibility protein, tandem BRCT domains (BRCA1, Homo sapiens, UniProt P38398) | isothermal titration calorimetry | – | – | – | ΔH | -14.7 ± 0.8 kcal/mol |
| C[C@]12CCC(=NOCCN)C[C@@H]1C(=O)C[C@@H]1[C@@H]2CC[C@]2(C)C(=O)CC[C@@H]12 | SERCA2a | – | – | concentration not given | – | ATPase activity | no effect |
| Cc1cc(NC(=O)c2cccc(NC(=O)/C=C/CN(C)C)c2)ccc1Nc1nccc(-c2cccnc2)n1 | TNK1 (Homo sapiens, UniProt Q13470) | enzyme activity, inhibitor | – | 1 µM | reference: vehicle | remaining activity | 60% |
| Nc1ccccc1NC(=O)c1ccc(CNc2nccc(-c3cccnc3)n2)cc1 | HepG2 | mitochondrial membrane potential | – | concentration not given, Tox21 | – | activity outcome | inactive |
| Cc1nccn1CC1CCc2c(c3ccccc3n2C)C1=O (stereo not shown) | 5-HT3 receptor | – | – | – | – | koff | 0.00967 s⁻¹ |
| O=S(=O)(c1ccc(Nc2ncnc3sc(Nc4c(Cl)cccc4Cl)nc23)cc1)N1CCCC1 | TRPV1 | calcium flux, antagonist | HEK293 | with: capsaicin | – | IC50 | 1 nM |
| COc1ccc2[nH]cc(CCNC(C)=O)c2c1 | MTNR1A | binding | – | – | – | Hill coefficient | 0.7 |
| Nc1ncnc2c1ncn2[C@@H]1O[C@H](COP(=O)(O)OP(=O)(O)O)[C@@H](O)[C@H]1O | MiD51 | – | – | concentration not given | – | binding | binds |
| COc1ccn2c(c1)nc1c2c(=O)[nH]c(=O)n1Cc1ccccc1 | ADORA2A (Homo sapiens, UniProt P29274) | – | – | 10 µM, with: [3H]ZM241385 | – | radioligand displacement | 10% |
| CC(C)=CCCC(C)=CC=O (mixture of isomers) | YqjM (Old Yellow Enzyme homolog) | ene-reductase biotransformation, substrate | – | – | – | conversion | 57 to 70% |
| CCN(c1cc(-c2ccc(CN3CCOCC3)cc2)cc(C(=O)NCc2c(C)cc(C)[nH]c2=O)c1C)C1CCOCC1 | PRMT1 (Homo sapiens, UniProt Q99873) | enzyme activity, inhibitor | – | 1 µM | – | inhibition | 5 ± 4% |

| Compound | target or system | assay | test system | setting | how to read | endpoint | value |
| --- | --- | --- | --- | --- | --- | --- | --- |
| Cc1ccc(C2=C(c3nn[nH]n3)C(O)=N[C@@](c3ccc(OCCCC(F)(F)F)cc3)(C(F)(F)F)C2)cc1 | MOGAT2 (Homo sapiens, UniProt Q3SYC2) | measured: dicarboxylic acid 18:1 | plasma | concentration not given, phase I clinical study | – | plasma dicarboxylic acid level | increased |
| c1ccc2c(c1)cc1c3c2ccc2cccc(c23)C1 | Ahr (Rattus norvegicus, UniProt P41738) | – | – | 50% effect level | reference: benzo[a]pyrene | relative potency | 1 |
| O=C(Nc1nc2ccccc2[nH]1)c1ccccc1 | luciferase | – | – | PubChem AID 588342 | – | activity | 1.5 µM |
| COc1ccccc1Oc1cccc(CN2CCC3(CC2)C(=O)NCN3CCc2ccccc2)c1 | human CCR8 F84A mutant (TM2) | IP accumulation, agonist | – | – | – | EC50 | 14 nM |
| O=C(Nc1cc(C(F)(F)F)cc(C(F)(F)F)c1)Nc1cccc2cnccc12 | TRPV1 | calcium flux, antagonist | HEK293 | with: capsaicin | – | IC50 | 32 nM |
| COc1cc(O)c(CC=C(C)C)c(O)c1C(=O)/C=C/c1ccc(O)cc1 | Xenopus laevis deiodinase type 3 | – | – | mean across 12 runs | – | Hill slope | -1.01 ± 0.12 |
| CNC(C)C1CCC(N)C(OC2C(N)CC(N)C(OC3OCC(C)(O)C(NC)C3O)C2O)O1 (stereo not shown) | Pseudomonas aeruginosa | – | clinical isolate RKI-No_484/12 | – | – | MIC | > 8 µg/mL |
| NCCc1c[nH]c2ccc(O)cc12 | 5-HT2A receptor Y7.43A | – | – | concentration not given | reference: wild type receptor | functional potency reduction | 300 fold |
| Cc1c(C#N)cccc1[C@@H](C)Nc1nnc(C)c2cnc(N3CCOCC3)cc12 | NCI-H1666 | ERK phosphorylation, In-Cell Western, measured: phospho-ERK | – | – | – | IC50 | 24.7 ± 12 nM |
| CC(C)C[C@@H](C(=O)N[C@H](C(=O)OC1CCCC1)c1ccccc1)[C@H](O)C(=O)NO | Aminopeptidase N (ANPEP, Homo sapiens, UniProt P15144) | enzyme activity | – | 10 µM | – | inhibition | 82.9% |
| C=CC(=O)N1CCC(C(=O)NCC(=O)N2CCN(c3nc(-c4cnc(N)nc4C(F)F)nc(N4CCOCC4)n3)CC2)CC1 | PIK3CG (Homo sapiens, UniProt P48736) | kinase activity | – | 1 µM | – | remaining activity | 0.1% |
| COc1ccc2[nH]cc(CCNC(C)=O)c2c1 | MTNR1A | – | – | historical reference value | – | Hill coefficient | 0.7 |
| Cc1nc(NC(=O)N2CCC[C@H]2C(N)=O)sc1-c1ccnc(C(C)(C)C(F)(F)F)c1 | Macrophage colony-stimulating factor 1 receptor, autoinhibited (CSF1R, Homo sapiens, UniProt P07333) | KinomeScan competition binding | – | 10 µM | – | remaining binding | 98% |
| C[N+]1(C)CCC(OC(=O)C(c2ccccc2)c2ccccc2)CC1.[I-] | CHRM1 | – | – | historical reference value | – | Hill coefficient | 1 |
| CC(C)CCC[C@@H](C)[C@H]1CC[C@H]2C3=CC=C4C[C@@H](O)CC[C@@]4(C)[C@@H]3CC[C@]12C | Cholesterol side-chain cleavage enzyme, mitochondrial (Bos taurus, UniProt P00189) | substrate | – | – | – | metabolism rate | 4.8 mol/min/mol enzyme |
| Cc1c(CN2CCN(C(=O)[C@H](C)O)CC2)sc2c(N3CCOCC3)nc(-c3cnc(N)nc3)nc12 | Tyrosine-protein kinase JAK1, JH2 pseudokinase domain (JAK1, Homo sapiens, UniProt P23458) | KinomeScan competition binding | – | 10 µM | – | remaining binding | 0% |
| C[C@H](Cc1ccccc1)Nc1ncnc2c1ncn2[C@@H]1O[C@H](CO)[C@@H](O)[C@H]1O | ADORA1 (Homo sapiens, UniProt P30542) | – | – | historical reference value | – | Hill coefficient | 0.9 |
| COc1c(N2C[C@@H]3CCCN[C@@H]3C2)c(F)cc2c(=O)c(C(=O)O)cn(C3CC3)c12 | SULT2A1 | substrate | – | – | – | Km | 500 µM |
| O=C1CC[C@H](N2Cc3cc(N4CCN(CC5CCN(c6ccc([C@@H]7c8ccc(O)cc8CC[C@@H]7c7ccccc7)cc6)CC5)CC4)ccc3C2=O)C(=O)N1 | Estrogen receptor (ESR1, Homo sapiens, UniProt P03372) | degrader | human patients | 200 mg once daily | – | maximum reduction | 95% |
| CC[C@H]1OC(=O)[C@H](C)[C@@H](O[C@H]2C[C@@](C)(OC)[C@@H](O)[C@H](C)O2)[C@H](C)[C@@H](O[C@@H]2O[C@H](C)C[C@H](N(C)C)[C@H]2O)[C@](C)(O)C[C@@H](C)C(=O)[C@H](C)[C@@H](O)[C@]1(C)O | Cytochrome P450 3A4 (CYP3A4, Homo sapiens, UniProt P08684) | substrate | – | concentration not given | – | Km | 70 µM |
